Assay results of several laboratories.
Lines come from different studies, so protocols differ. “And” joins repeats or separate records; there may be more than shown. ± gives the spread as reported.

Structure (SMILES)	test	test system	conditions	how to read	measurement	value
NC(=O)c1cccc(NC(=O)c2cc(-c3ccc(Br)cc3)n(-c3ccccc3)n2)c1		rat liver microsomes	4 h		depletion	< 30%
Cc1nn(-c2nc3c(F)cc(F)cc3s2)c(O)c1C(c1ccc(C(F)(F)F)cc1)c1c(C)nn(-c2nc3c(F)cc(F)cc3s2)c1O		ICR mouse	intravenous, 5 mg/kg, 8.00 h		plasma concentration	782 ng/mL and 3640 ng/mL and 1130 ng/mL and 1120 ng/mL
CC(=O)N([O-])CCCCCNC(=O)CCC(=O)N([O-])CCCCCNC(=O)CCC(=O)N([O-])CCCCCN.[89Zr+4]		PBS	3 days, pH 7, 37 °C		intact compound	99.9 ± 0.1%
C=C[C@]1(C)C[C@@H](OC(=O)CSc2ccc(NC(=O)c3ccco3)cc2)[C@]2(C)[C@H](C)CC[C@]3(CCC(=O)[C@H]32)[C@@H](C)[C@@H]1O		M. gallisepticum-infected chickens, plasma	intramuscular, 5 mg/kg single dose		Cmax	560 ng/mL and 562 ng/mL
CN1C(=O)[C@@H](Cc2ccc(O)c(I)c2)NC(=O)CNC(=O)[C@H](Cc2ccc3ccccc3c2)NC(=O)[C@H](CCCNC(=N)N)NC(=O)[C@H]1CCCNC(=O)c1ccc(CNC(=O)CN2CCN(CC(=O)O)CCN(CC(=O)O)CCN(CC(=O)O)CC2)cc1 [lutetium-177 labelled]	2	human, extrapolated from mouse, Urinary bladder wall			total absorbed dose	0.00086 mGy/MBq
CC(C)=CCC1=C([O-])C(=O)c2ccccc2C1=O.CC(C)=CCC1=C([O-])C(=O)c2ccccc2C1=O.[Zn+2].c1ccc(-c2ccnc3c2ccc2c(-c4ccccc4)ccnc23)cc1	cyclic voltammetry	CH2Cl2, Bu4NPF6	0.1 mM	relative to: Ag/AgCl sat. KOH	Epa1 anodic peak potential	0.84 V
C=C(NC(=O)c1csc(-c2nc3c(cc2O)-c2nc(cs2)C(=O)NC(C(C)O)C(=O)NC(=C(C)OC)c2nc(cs2)C(=O)NC2c4nc(cs4)C(=O)NC(COC(=O)c4c5c6c(cccc6n4O)COC(=O)C(OC4CC(C)(O)C(N(C)C)C(C)O4)C2OC5)c2nc-3cs2)n1)C(N)=O (stereo not drawn)	item: parent drug	Sprague-Dawley rats, both sexes, bile	intravenous, 6 mg/kg, 24 h		biliary excretion	26%
Nc1nc2cnc(C(=O)N3CCOC[C@@H]3c3ccc(C(F)(F)F)cc3)cc2c2c1COC2		mouse, plasma			fraction unbound	0.071
COCC1CN(C2CCN(c3cc(OC)c(Nc4ncc(Br)c(Nc5ccc6c(c5P(C)(C)=O)OCCO6)n4)cc3C)CC2)C1		EGFR-mutant NSCLC patients, plasma	oral, 10 mg single dose, geometric mean		Cmax	21.6 ng/mL
COc1ccc2c(c1)CCn1c[n+]3c(c1-2)-c1ccc(OC)cc1CC3		female NSG mice, blood	6 mg/kg, day 14, 5 days per week		Basophils	0%
C=CC(=O)Nc1cccc(Cn2ncc3cnc(Nc4cnn(CCOC)c4)nc32)c1		mouse hepatocytes			scaled intrinsic clearance	88.2 mL/min/kg
CN1CCCNC(=O)c2cccc(c2)C(=O)NCCCN(C)CCCNc2cccc3c2C(=O)c2cccc(c2C3=O)NCCC1		mouse xenograft model	dose not given, day 0		body weight	25 g and 26 g and 24 g
CCCCN1C(=O)c2cccc3c(NCCCN4CCOCC4)ccc(c23)C1=O		water	pH 6.0		fluorescence quantum yield	0.47
C/C(N)=N/C(=N\S(=O)(=O)c1ccc(C(F)(F)F)cc1)N1C[C@H](c2ccccc2)C(c2ccc(Cl)cc2)=N1		male C57BL/6 mouse, brain	oral, 10 mg/kg		Tmax	2 h
CN1CCC[C@]1(C)/C=C/S(=O)(=O)NC(=O)Nc1c2c(cc3c1C(O)CC3)CCC2 (stereo partly drawn)		human, plasma	oral, 100 mg twice daily of parent drug, day 14, metabolite of dosed drug		Cmax at first steady-state dose	23600 ng/mL
O=C(CCc1ccc(CNC(C(=O)O)C2CCCCC2)cn1)NO (stereo not drawn)		healthy male humans, plasma	oral, 20 mg, single dose	relative to: fed over fasted	Cmax ratio	0.73
CNc1cc(C)c(C(N)=O)cn1		Han Wistar rats, male, plasma	oral, 30 mg/kg, 24.0 h		concentration at time	0.0252 µM
C=CC(=O)N1CCCC(n2c(=O)c3ncccc3n(Cc3ccc(Oc4ccccc4)cc3)c2=O)C1 (stereo not drawn)	metabolic stability	male CD-1 mouse, hepatocytes	1 µM, 2 h		compound remaining	0.3%
COc1ccc(C(N)=O)cn1		Han Wistar rats, male, plasma	oral, 30 mg/kg, 0.50 h		concentration at time	139 µM
C#CCOCCOCCOCCOCCn1cc(C(ONC(=O)/C=C/C(C)=C/C2(C)Oc3cc(N(C)C)ccc3C2=O)(c2ccc(C)cc2)c2ccc(C)cc2)nn1 (stereo not drawn)	HPLC	aqueous buffer, 20% acetonitrile	concentration not given, 76 min, pH 3	relative to: initial prodrug amount	release from prodrug hydrolysis	78.7%
CCCC[C@H](OC(C)=O)c1ccccc1C(=O)O		beagle dogs, both sexes, whole blood	intravenous, 1.5 mg/kg single dose, 1 min		blood concentration	3950 ± 591 ng/mL

Structure (SMILES)	test	test system	conditions	how to read	measurement	value
CN1CCC[C@@H]1C(=O)N[C@@H](Cc1ccc(-c2ccccc2)cc1)B(O)O		NODscidIL2Rγnull mice, whole blood	oral, 50 mg/kg, 2 h, mean		blood concentration	730 ng/mL
[11CH3]N1CCC(NC(=O)c2cc(-c3c(O)cc(O)cc3Oc3ccc([N+](=O)[O-])cc3)on2)CC1		Wistar rat, female, healthy, spleen	intravenous, 18.5 MBq, 2 min		SUV	2.3 ± 0.2
O=C(Nc1cnccc1-c1ccc([18F])nc1)c1ccnc(NC(=O)C2CC2)c1		FVB/NJ mice, both sexes, liver	intravenous, 50 min, median, no P-gp inhibitor		SUV	8.4
CN([O-])C(=O)CN1CCN(CC(=O)N(C)[O-])CCN(Cc2ccccn2)CC1.[89Zr+4]		mouse, spleen	intravenous, 4 h		tracer uptake	0.25 %ID/g
O=C(O)CCCOc1ccc([18F])cc1-c1cc(-c2ccccc2C(F)(F)F)n(-c2ccccc2)n1		mouse, large intestine	dose not given, 360 min		radioactivity	6.4 %ID/organ
C[C@H](C(=O)O)c1ccc(-c2ccccc2)c(F)c1	HPLC	reference solution	concentration not given, 12 h, room temperature, solution stability		peak area change	≤ 2%
N=C(N)NCCC[C@@H]1NC(=O)[C@H](CO)NC(=O)[C@@H](NC(=O)[C@H](CO)NC(=O)[C@H](CO)NC(=O)[C@H](Cc2c[nH]c3ccccc23)NC(=O)CNC(=O)[C@H](CO)NC(=O)[C@@H](N)Cc2c[nH]c3ccccc23)CSSC[C@@H](C(=O)NCC(=O)O)NC(=O)[C@H](CO)NC1=O		patients, plasma	intravenous, 10 mg/kg, thrice weekly, mean		Cmax	6840 ng/mL
CC[C@H](C)[C@H](NC(=O)[C@H](CCCCN)NC(=O)[C@H](CCC(=O)O)NC(=O)[C@H](CCCCN)NC(=O)[C@H](CC(C)C)NC(=O)[C@H](C)NC(=O)[C@H](C)NC(=O)[C@@H](NC(=O)[C@H](CCCCN)NC(=O)[C@@H]1CSCc2cccc(c2)CSC[C@H](NC(=O)[C@@H](NC(=O)[C@H](CCCCN)NC(C)=O)[C@@H](C)CC)C(=O)N[C@@H](C)C(=O)N[C@@H](CC(C)C)C(=O)N[C@@H](CCCCN)C(=O)N1)[C@@H](C)CC)C(=O)N[C@@H](C)C(=O)N[C@@H](C)C(=O)N[C@@H](CC(C)C)C(=O)N[C@@H](CCCCN)C(=O)N[C@@H](CCC(=O)O)C(=O)NCC(=O)N[C@@H](Cc1c[nH]c2ccccc12)C(N)=O	tryptophan fluorescence titration	DOPC/DOPE/cholesterol 2:1:1 liposomes in PBS			ΔG of membrane partitioning	-6.73 kcal/mol
CC[C@H](C)[C@H](NC(=O)[C@H](CCCCN)NC(=O)[C@H](CCC(=O)O)NC(=O)[C@H](CO)NC(=O)[C@H](Cc1ccccc1)NC(=O)[C@H](CC(C)C)NC(=O)[C@H](CCC(N)=O)NC(=O)[C@H](CO)NC(=O)[C@H](C)NC(=O)[C@H](CCCCN)NC(=O)[C@H](Cc1c[nH]cn1)NC(=O)[C@H](Cc1c[nH]c2ccccc12)NC(=O)[C@H](CCC(N)=O)NC(=O)[C@H](CCCCN)NC(=O)[C@H](CCCCN)NC(=O)[C@H](CC(C)C)NC(=O)CNC(=O)[C@H](C)NC(=O)[C@@H](NC(=O)[C@H](CO)NC(=O)[C@@H](N)CCSC)C(C)C)C(=O)N[C@@H](CO)C(=O)NCC(=O)N[C@@H](C)C(N)=O	circular dichroism titration	100% DOPS liposomes	50 µM, pH 7.4, 20 °C		ΔG of binding	-7.5 kcal/mol
CC[C@H](C)[C@H](NC(=O)C[C@H](NC(=O)CN1CCN2CCN(CC1)CC(=O)[O][Al]([18F])[O]C(=O)C2)C(=O)O)C(=O)N[C@H]1CCc2cccc3c2N(C1=O)[C@H](C(=O)NCc1cn[nH]n1)C3		C57BL/6J mice, MC-38 tumour, anti-PD-1 treated, heart	0.5 h		tissue uptake	0.62 ± 0.05 %ID/g
O=C(O)CN1CCN(CC(=O)O)CCN(CC(O)CN(CC(O)CN2CCN(CC(=O)O)CCN(CC(=O)O)CCN(CC(=O)O)CC2)C[C@H](O)[C@@H](O)[C@H](O)[C@H](O)CO)CCN(CC(=O)O)CC1 (stereo partly drawn)	pH-potentiometry, spectrophotometry, item: CuHL		25 °C, 0.15 M NaCl		log K	9.15
Cc1cc(-c2ccc(C(=O)[C@@H]3CCCC[C@H]3C(=O)Nc3cnn4c3C(=O)NCC4)cc2)[nH]n1		human, faeces	oral, 200 mg, 0-120 h	relative to: dose	cumulative recovery of radioactivity	63.8%
CCC1CNC(CC)CN(C(C(=O)[O-])c2ccc(C(=O)[O-])cc2)C(CC)CN(CC(=O)[O-])C(CC)CN1.[Mn+2] (stereo not drawn)	ICP-MS	BALB/c mice, liver	intravenous, 0.05 mmol/kg, 1440 min	relative to: injected dose	Mn uptake	3.53 ± 0.64%
CN(C)S(=O)(=O)c1ccc(S(=O)(=O)N2CCC(n3c(=O)[nH]c4ccccc43)CC2)cc1		mouse	intraperitoneal, 6 mg/kg, 4 day	relative to: day 0	body weight	99.6%
CCCCN1C(=O)c2cccc3c(NCCN4CCOCC4)ccc(c23)C1=O		ethylene glycol			fluorescence lifetime	6.8 ns
CN(O)C(=O)CCC(=O)NCCCN(CCCCN(CCCNC(=O)CCC(=O)N(C)O)C(=O)CCC(=O)N(C)O)C(=O)CCC(=O)N(C)O.[89Zr]	radio-TLC	aqueous buffer	5 d, pH 5, 37 °C, 89Zr-labelled complex, together with: DTPA 1000-fold excess		intact complex	83.2 ± 1.7%
CC1(N(CC(=O)O)CC(=O)O)CN(CC(=O)O)CCN(CC(=O)O)C1	pH-potentiometry, item: logK4H	0.15 M NaClO4	25 °C		protonation constant (log)	1.94
CC(C)(O)c1ncc([S@](N)(=O)=NC(=O)Nc2c3c(cc4c2CCC4)CCC3)s1	item: general and administration-site disorders	healthy human volunteers	oral, 600 mg single dose, spray-dried dispersion		subjects with adverse events	17%
O=C(NS(=O)(=O)c1cccs1)c1cc2ccccc2n1Cc1ccc(Br)c2ccccc12		Sprague-Dawley rat, male	intravenous, dose not given, 0.083 h		plasma concentration	6000 ng/mL
O=C1CCC(N2Cc3cc(N4CCN(CC5CCN(c6ccc(C7c8ccc(OC9OC(C(=O)O)C(O)C(O)C9O)cc8CCC7c7ccccc7)cc6)CC5)CC4)ccc3C2=O)C(=O)N1 (stereo not drawn)		Sprague-Dawley rat, female, bile duct-cannulated, bile	0 to 72 h	relative to: dose	biliary excretion	0.32%
C=CC(=O)Nc1cc(Nc2nccc(-c3c[nH]c4ccccc34)n2)c(OC)cc1N(C)CCN(C)C	storage stability	human plasma	5 h, -80 °C, LLOQ level		recovery	99.9%

A few entries again:
Structure (SMILES)	test	test system	conditions	how to read	measurement	value
CC(=O)N([O-])CCCCCNC(=O)CCC(=O)N([O-])CCCCCNC(=O)CCC(=O)N([O-])CCCCCN.[89Zr+4]		PBS	3 days, pH 7, 37 °C		intact compound	99.9 ± 0.1%
C=C[C@]1(C)C[C@@H](OC(=O)CSc2ccc(NC(=O)c3ccco3)cc2)[C@]2(C)[C@H](C)CC[C@]3(CCC(=O)[C@H]32)[C@@H](C)[C@@H]1O		M. gallisepticum-infected chickens, plasma	intramuscular, 5 mg/kg single dose		Cmax	560 ng/mL and 562 ng/mL
CN1C(=O)[C@@H](Cc2ccc(O)c(I)c2)NC(=O)CNC(=O)[C@H](Cc2ccc3ccccc3c2)NC(=O)[C@H](CCCNC(=N)N)NC(=O)[C@H]1CCCNC(=O)c1ccc(CNC(=O)CN2CCN(CC(=O)O)CCN(CC(=O)O)CCN(CC(=O)O)CC2)cc1 [lutetium-177 labelled]	2	human, extrapolated from mouse, Urinary bladder wall			total absorbed dose	0.00086 mGy/MBq
CC(C)=CCC1=C([O-])C(=O)c2ccccc2C1=O.CC(C)=CCC1=C([O-])C(=O)c2ccccc2C1=O.[Zn+2].c1ccc(-c2ccnc3c2ccc2c(-c4ccccc4)ccnc23)cc1	cyclic voltammetry	CH2Cl2, Bu4NPF6	0.1 mM	relative to: Ag/AgCl sat. KOH	Epa1 anodic peak potential	0.84 V
C=C(NC(=O)c1csc(-c2nc3c(cc2O)-c2nc(cs2)C(=O)NC(C(C)O)C(=O)NC(=C(C)OC)c2nc(cs2)C(=O)NC2c4nc(cs4)C(=O)NC(COC(=O)c4c5c6c(cccc6n4O)COC(=O)C(OC4CC(C)(O)C(N(C)C)C(C)O4)C2OC5)c2nc-3cs2)n1)C(N)=O (stereo not drawn)	item: parent drug	Sprague-Dawley rats, both sexes, bile	intravenous, 6 mg/kg, 24 h		biliary excretion	26%
